Measurements of several laboratories.
Numbered parts are unrelated; each lists some results of a single study.

Block 1
Target: RNA binding protein fox-1 homolog 2, RRM domain, GST-SBP tag (RBFOX2, Homo sapiens, UniProt O43251-10, residues 100-194)
Technique: RNA Bind-n-Seq
Form: RNA
Sample: in vitro
Tested at: 365 nM
Notes: natural RNA segment, single round, ends assumed
Relative to: no-protein control
Direction: higher = stronger binding
Endpoint: RBNS enrichment (R)
All sequences stand within: GGGAGUUCUACAGUCCGACGAUC … UGGAAUUCUCGGGUGCCAA
Construct (chain): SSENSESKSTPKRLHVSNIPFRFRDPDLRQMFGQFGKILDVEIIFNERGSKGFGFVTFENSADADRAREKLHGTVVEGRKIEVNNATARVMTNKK
CUCCUUUGUUUUCCGCCUAGCGACAAGGGAUUUGCUCGCACGGCAUUGGCUCCAUCCCCUAGUCGCUGGACAGCUCUUUUUUUGAUUGGCUCAAAUCCUGUAAAGGGCUU: 2.22
AAGAUCCUGUCCUGAUUCUCAAAAAUUAUUUUCUCUGUAUGAUUAAAAGUUUAUUCCAUUUAUUUUAGUUUGUGUUUACUUGAUUUUGAGGAAGAAAAUAUUUGACUUUG: 0.587
AAGGGAGAUUUCAAGCCACCUGACUUCUUCAGUUUAGUCUUCACCCAGGGUCAGAGCGCACAGCUUCAGGCAUCUCUGUCCACCAGCUAGCAGUGGAGAUGAAAUCAAGA: 1.43
UAGCCAACAUUCCUGCCCUAACCCUGCCCAUCACCAGCUGGCUGGGCUGGUAUUUAUCUGCAAGGUUGAAGUCACUGGGAUUCUUUUCCUUUCACCUAGAUAGUCCUUGG: 0.383
UCAGACUCAUAUGGCAUGUUAAUUAAUGACUUACGAUGGUGUCCUACUCUGGGCAGCUGUAUAGGAUCAUCAUGUGGUUAAAAGAAGAUACUUCCCUCCAAAAAAAAAUC: 1.15
AGUCUUAUUUUAUAGUUUGAAAAGCACUUUGCACACAGUUCUUGUAUAUAAAAGUAAAGAUGUAAUUAUAGGAUAUAGUGUUCCUGCUUUGUUUAAUAAGAACCUCAUUU: 6.92
AAAGUAAAAGUUCUAAAAUGAAGUCACACAGGACAAUUAUUCUUAUGCCUAAGUUAACAGUGGAUAAAAGACUUUUCUGUAAACAACUCCAGUAAUAAAUAUCAUGAACU: 0.411
ACCACAGACAGUACCCACGCUACCAGUCUGAUUAUAAAGGGAGACACUUUAUUUUUUCACAAUUAAAUAAGAAUUGUAGAUUAAUACACCUCUAUCUUGCAUGGGAAGGA: 1.15
UGUUAUCUUUAUUUAGCUGAGGUUAAAUUAAUCUCUGUUGUGCAAGAAAAACAUGAAGCUUGCCCCUCGAGGGAUCUACUCCUGUUUUUCCCGUCAUCUGUUGGCUUCAG: 0.308
GCGAGUGCUAUUGUAGUCUUGGCAAGUGAGCCAAGAACCUAGGAGCAGGGCCAUUCCUACUGAAGGACGGGCCCCCUACGGAGAUGAAAUUUGUUUCCUGGUGAGCACAG: 0.421
AGGGUUUGACUCCCUGGACACUCUGAGUGGGGUGGUCAUCCAGGCAGUACUAUUAAUGACCUCCCCAGGGCAGGCAUGAGUUGUGUCCUGAGUGGAACAUCUGGCCAUGC: 2.32
AUCUUUCUCCCCGAAACAAUGUUGUUUUGUUUUGUUUUUUUUCCUUAAUUUGCACGAAAACAAAAAUUCCAUAUCAAUGUGCCUUGCCCUGGAUAGCGAUUAUUUGUGGA: 10.3

Block 2
Target: Histone acetyltransferase KAT6A, winged helix 1, GST fusion (KAT6A, Homo sapiens, UniProt Q92794, residues 1-85)
Technique: protein binding microarray
Form: double-stranded DNA, one strand shown
Sample: in vitro
Tested at: not given
Notes: 8-mer, flanks averaged, mean of 2 arrays, mostly near background
Relative to: not given
Direction: higher = stronger binding
Endpoint: E-score
Construct (chain): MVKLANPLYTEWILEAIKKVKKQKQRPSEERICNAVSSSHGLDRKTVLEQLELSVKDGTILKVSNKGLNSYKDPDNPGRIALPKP
GCGTCTCC: 0.299
ATGGCGAA: 0.0259
CGGTTTGA: 0.0506
GTGGGCCA: -0.138
CGTACGAG: 0.175
CCAGAAGA: -0.319
ATCCTGTG: -0.202
AAGTGGAC: -0.153
AGTTCGAA: 0.00878
TACACCGA: -0.0278
CATTCCGA: 0.0261
GCTGGACC: -0.127
CCTGCTGC: -0.0454
CTACGGTC: 0.207
AAATTCCG: -0.054
CGCCGTTA: 0.389
CTATGAAC: 0.0146
ATCAAAAT: -0.248
GGATCGGA: 0.181
ATACTTTC: -0.134
TAGTTCCA: -0.153
AGGCACCT: -0.0635

Block 3
Target: Interferon regulatory factor 7, full length, phosphomimetic (IRF7, Homo sapiens, UniProt Q92985, residues 1-503, S101K/S471D/S472D/S475D/S476D/S477D/S483D/S484D/S487D)
Technique: protein-binding microarray
Form: double-stranded DNA, one strand shown
Sample: in vitro
Tested at: 250 nM
Notes: 60-bp whole probe
Together with: salmon DNA 0.4 mg/ml
Relative to: random background probes
Direction: higher = stronger binding
Endpoint: log fluorescence
All sequences stand within: GCCTAGCAC … GTCTTGATTCGCTTGACGCTGCTG
Construct (chain): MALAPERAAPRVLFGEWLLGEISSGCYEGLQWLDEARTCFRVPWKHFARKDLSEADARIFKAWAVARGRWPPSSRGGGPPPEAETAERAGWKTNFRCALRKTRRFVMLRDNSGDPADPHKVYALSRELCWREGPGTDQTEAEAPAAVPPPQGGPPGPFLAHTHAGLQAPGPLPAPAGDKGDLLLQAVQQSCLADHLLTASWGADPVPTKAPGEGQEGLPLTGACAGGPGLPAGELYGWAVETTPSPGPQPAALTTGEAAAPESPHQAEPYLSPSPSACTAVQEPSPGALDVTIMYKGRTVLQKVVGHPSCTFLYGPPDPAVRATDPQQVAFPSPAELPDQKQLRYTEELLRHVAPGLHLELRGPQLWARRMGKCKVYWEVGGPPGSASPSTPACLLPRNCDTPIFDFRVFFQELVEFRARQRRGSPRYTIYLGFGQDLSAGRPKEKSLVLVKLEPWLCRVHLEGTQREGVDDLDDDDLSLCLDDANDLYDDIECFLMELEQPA
TTAGGTTTCTTTTCCCTTTAGTGCTAG: 5.14 z-score
CTCATTCTCTGCTTCTGTATGTGCTAG: 1.43 z-score
TTATGACTGGGGACTGGGTTAGTGCTA: -0.129 z-score
GACAGACTGGGACTGGGGACGTGCTAG: -0.312 z-score
GACGGACTGCTTTTCCTGAAGTGCTAG: 0.122 z-score
TTATGTCTCGGTATCGGTTAGTGCTAG: 2.16 z-score
TTAGATTTCAGTATCGACTAGTGCTAG: 0.453 z-score
GACGATTTCGGGTTTCGAGCCGTGCTA: 2.41 z-score
GACGATTTCGGGTATCCAGACGTGCTA: 0.605 z-score
TTAGGTTTCGACTATCGGATAGTGCTA: 5.94 z-score
TTAGATTTGGGGTATCGATTAGTGCTA: 0.304 z-score
TTAGGTTCCCTTTTCCTTGAGTGCTAG: 4.17 z-score
GACGGTTACCTTTCCCTGACGTGCTAG: 0.675 z-score
TCAAGTTTTACTTTCTAACTGTGCTAG: 1.22 z-score
TCACTTCTCTTTTGGCTACTGTGCTAG: 2.06 z-score
TACGGTCTCCTACTGCTGACGTGCTAG: 0.0505 z-score
GACGATTTCCTACTGCTGACGTGCTAG: 0.845 z-score
TTTGGTATCGGGTATCGGTTAGTGCTA: 1.75 z-score
TCAGGTTTCGGACTGGGTTAGTGCTAG: 4.28 z-score
CCAATTCTTTTTATGCTTTCGTGCTAG: 1.15 z-score
GACGAACTGAGACAGGAGACGTGCTAG: 0.0123 z-score
GCCGGTATCGGTATCGGGACGTGCTAG: 1.64 z-score

Block 4
Target: Prothrombin, mature alpha-thrombin (F2, Homo sapiens, UniProt P00734)
Technique: aptamer microarray, sandwich
Form: DNA with 2'F-ANA
Sample: in vitro
Tested at: 200 nM
Notes: whole 15-mer aptamer, many near background
Together with: Cy3 exosite-II aptamer, 400 nM
Direction: higher = stronger binding
Endpoint: mean fluorescence intensity
Oligonucleotide: GGTTGGTGTGGTTGG
2'F-ANA at 1 3 4 7 8 9 10 14 15: 54.9 a.u.
2'F-ANA at 1 2 10 11 12 14: 45.2 a.u.
2'F-ANA at 3 6 9 10 12: 534 a.u.
2'F-ANA at 1 2 3 4 5 8 11 13 15: 52.2 a.u.
2'F-ANA at 4 6 8 9 10 12 14: 59.6 a.u.
2'F-ANA at 3 4 6 7 8 9 10 12 14: 199 a.u.
2'F-ANA at 1 2 3 4 8 9 15: 190 a.u.
2'F-ANA at 1 5 6 11 13 14: 75.4 a.u.
2'F-ANA at 3 4 7 9 10 11 12 13 14: 192 a.u.
2'F-ANA at 1 2 3 5 6 8 9 11 13: 57.1 a.u.
2'F-ANA at 1 2 5 6 9 11: 51.1 a.u.
2'F-ANA at 7 8 11 13: 489 a.u.
2'F-ANA at 4 5 6 8 10 11 12 14: 53.6 a.u.
2'F-ANA at 1 8 11 15: 200 a.u.
2'F-ANA at 2 5 6 8 11 12 15: 182 a.u.
2'F-ANA at 1 3 4 7 8 9 10 11 12 14 15: 54.8 a.u.
2'F-ANA at 2 3 4 5 7 8 9 13 14 15: 66 a.u.
2'F-ANA at 1 2 3 4 6 7 8 10 11 12 13: 73.2 a.u.
2'F-ANA at 3 6 12 15: 1260 a.u.
2'F-ANA at 9 11 12 15: 635 a.u.
2'F-ANA at 3 5 6 7 9 10 12 14 15: 48.3 a.u.
2'F-ANA at 1 2 4 7 9 10 13 14 15: 48.8 a.u.
2'F-ANA at 2 3 4 5 6 8 10 12 13 14: 58.9 a.u.
2'F-ANA at 1 2 3 5 7 8 9 11 12: 113 a.u.
2'F-ANA at 1 3 8 9 14: 96.5 a.u.

Block 5
Target: Sal-like protein 4, full length isoform A (SALL4, Homo sapiens, UniProt Q9UJQ4, residues 1-1053)
UniProt Q9UJQ4, sequence (whole entry, looked up): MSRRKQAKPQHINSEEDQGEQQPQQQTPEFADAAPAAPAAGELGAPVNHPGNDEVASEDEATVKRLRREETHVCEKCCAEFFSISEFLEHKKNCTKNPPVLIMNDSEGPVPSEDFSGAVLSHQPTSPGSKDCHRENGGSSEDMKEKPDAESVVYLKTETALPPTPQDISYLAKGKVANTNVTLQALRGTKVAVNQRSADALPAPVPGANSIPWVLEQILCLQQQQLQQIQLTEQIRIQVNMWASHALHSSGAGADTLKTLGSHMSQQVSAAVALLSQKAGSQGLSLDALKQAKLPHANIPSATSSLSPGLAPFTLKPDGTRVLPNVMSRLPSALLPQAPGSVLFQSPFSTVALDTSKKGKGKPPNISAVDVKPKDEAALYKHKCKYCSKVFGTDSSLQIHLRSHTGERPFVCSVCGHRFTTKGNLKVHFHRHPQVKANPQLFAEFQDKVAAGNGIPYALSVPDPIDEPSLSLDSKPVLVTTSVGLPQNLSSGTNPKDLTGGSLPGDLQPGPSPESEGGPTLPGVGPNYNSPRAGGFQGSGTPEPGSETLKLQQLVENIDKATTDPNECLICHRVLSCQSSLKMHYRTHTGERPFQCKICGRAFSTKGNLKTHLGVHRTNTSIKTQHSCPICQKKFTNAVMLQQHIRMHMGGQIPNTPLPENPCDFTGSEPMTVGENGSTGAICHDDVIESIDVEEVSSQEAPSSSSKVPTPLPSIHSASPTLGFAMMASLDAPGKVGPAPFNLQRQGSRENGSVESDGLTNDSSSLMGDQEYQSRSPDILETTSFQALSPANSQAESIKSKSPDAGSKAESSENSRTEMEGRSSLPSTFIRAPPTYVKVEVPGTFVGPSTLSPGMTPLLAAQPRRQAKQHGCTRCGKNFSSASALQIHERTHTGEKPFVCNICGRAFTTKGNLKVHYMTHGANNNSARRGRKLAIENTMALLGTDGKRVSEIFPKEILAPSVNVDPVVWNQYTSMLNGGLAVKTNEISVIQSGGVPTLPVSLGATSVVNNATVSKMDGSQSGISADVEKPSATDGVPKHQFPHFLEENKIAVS
Technique: universal PBM
Form: double-stranded DNA, one strand shown
Sample: in vitro
Tested at: 600 nM
Notes: 8-mer, flanks averaged, mean of replicates
Direction: higher = stronger binding
Endpoint: E-score
CCATCCTC: -0.169
GCAATTAC: 0.0819
TGAACACA: 0.137
AAGAAGTA: 0.154
ATATCCTC: 0.171
TTCGTCAA: 0.184
AGCATAGG: -0.172
CACCCCCG: -0.178
ATGGCCTG: -0.238
CAACGAAC: -0.0587
AGTAGAAC: 0.166
ACGTCTAG: 0.14
AAAGGCCG: -0.216
ATGTAACC: 0.0455
CTTTACGC: 0.00786
AGCGCCGG: -0.423
AGTACACT: 0.046
ACGAGAGG: -0.104
CCCTCGCC: -0.261
ACTTTAAG: 0.149
CGAGTCTC: -0.252
CACCACGA: -0.0425

For quick reference, copied from above (block 5):
AGCATAGG: -0.172
CACCCCCG: -0.178
ATATCCTC: 0.171
CCCTCGCC: -0.261
CTTTACGC: 0.00786
AAGAAGTA: 0.154
CGAGTCTC: -0.252
AGTACACT: 0.046
AAAGGCCG: -0.216
AGTAGAAC: 0.166
CCATCCTC: -0.169
ACGAGAGG: -0.104
GCAATTAC: 0.0819
